Measurements collected from several papers.
± marks the error that the study gave.

SMILES = CCCCN1C[C@H](O)[C@@H](O)[C@H](O)[C@H]1CO; tested on = Sandhoff disease patient fibroblasts; assay = glycosphingolipid lowering, LC-MS/MS, item: HexCer d18:0/22:0; endpoint = IC50; value = 5080 nM
SMILES = CCn1ncc2c1-c1cnc(N)c(c1)O[C@H](C)c1cc(F)ccc1-c1nn(C)nc1C2; tested on = Ba/F3, EGFR L858R/T790M/C797S; assay = cell viability; endpoint = IC50; value = > 10000 nM
SMILES = COC(=O)c1ccccc1-c1c2ccc(=N)cc-2oc2cc(N)ccc12; tested on = untransduced HeLa; assay = CellTiter-Glo; conditions = 48 h; endpoint = IC50; value = 5720 ± 700 nM
SMILES = Cc1[nH]c(/C=C2\C(=O)Nc3ccc(S(=O)(=O)N(C)c4cccc(Cl)c4)cc32)c(C)c1C(=O)N1CCN(C)CC1; tested on = Rh28 (alveolar rhabdomyosarcoma); assay = cell growth; conditions = 3 days; endpoint = IC50; value = 4500 ± 1860 nM
SMILES = COc1ccc(F)cc1C(=O)NCc1ccc(-c2nn([C@@H](C)C(F)(F)F)c(N)c2C(N)=O)cc1; tested on = Rec1; assay = item: PDGF-AA; conditions = 24 h; endpoint = IC50; value = > 100 nM
SMILES = Cn1cc(-c2ccc(-c3cncc(Cl)c3N3CCC4(CCNC4=O)CC3)cc2)cn1; tested on = 7dF3; assay = WNT reporter gene, inhibitor; endpoint = IC50; value = 5 ± 2 nM
SMILES = O=C(Cc1cccnc1)Nc1ccc([C@H]2[C@@H](F)[C@@H](F)C[C@@H](F)[C@H]2F)cc1; system = mouse liver microsomes; conditions = 1 µM; endpoint = hepatic clearance; value = 43 mL/min/kg
SMILES = COc1cc(C(=O)c2nc(-c3cccc4[nH]ccc34)c[nH]2)cc2c1OCO2; tested on = PC-3/TxR paclitaxel-resistant; assay = cell growth, MTS; conditions = 72 h; endpoint = IC50; value = 1.9 ± 0.2 nM
SMILES = CN(C)CCC(=O)Nc1ccc([C@H]2[C@@H](F)[C@@H](F)C[C@@H](F)[C@H]2F)cc1; assay = liver microsome stability; system = dog liver microsomes; conditions = 1 µM; endpoint = hepatic clearance; value = 28 mL/min/kg
SMILES = CC[C@H](C)[C@@H]1NC(=O)[C@H](Cc2ccc(-c3ccccc3)cc2)NC(=O)[C@H](CC(C)C)NC(=O)[C@@H]2[C@@H](c3ccccc3)CCN2C(=O)[C@H](NC(=O)[C@H](CCCNC(=N)N)NC(=O)[C@H](CCCNC(=N)N)NC(=O)[C@H](CCCCN=[N+]=[N-])NC(C)=O)CSCSC[C@@H](C(=O)N[C@@H](CCCNC(=N)N)C(=O)N[C@@H](CCCNC(=N)N)C(N)=O)NC(=O)[C@H](C(C)C)NC(=O)[C@@H]2CCCN2C(=O)[C@H](CC(=O)O)NC(=O)[C@H](Cc2ccc(O)cc2)NC(=O)[C@H](CO)NC1=O; tested on = AsPC-1; assay = AlphaScreen, item: pERK; conditions = 2 h; endpoint = IC50; value = 3000 nM
SMILES = CCCCN1C[C@H](O)[C@@H](O)[C@@H](O)[C@H]1CO; tested on = sample D patient fibroblasts; assay = Gb3 level lowering, LC-MS/MS, item: Gb3 d18:1/24:0; conditions = 216 h; endpoint = IC50; value = 10900 nM
SMILES = CC(C)c1cccc(C(C)C)c1-n1ccn(-c2c(C(C)C)cccc2C(C)C)c1=[Se]; tested on = H157 lung carcinoma cells; assay = cell viability, MTT; conditions = 72 h; endpoint = IC50; value = 8400 nM
SMILES = CCCCCN1C[C@H](O)[C@@H](O)[C@H](O)[C@@H]1CO; tested on = Sandhoff disease patient fibroblasts; assay = glycosphingolipid lowering, LC-MS/MS, item: four GlcCer isoforms; endpoint = IC50; value = 500 nM
SMILES = Cc1nc(Nc2ncc(C(=O)Nc3c(C)cccc3Cl)s2)cc(N2CC[C@H](O)C2)n1; tested on = PEER; assay = cell proliferation, CellTiter-Glo; conditions = 72 h; endpoint = IC50; value = > 10000 nM
SMILES = CC[C@H](C)[C@@H]1NC(=O)[C@H](Cc2ccc(-c3ccccc3)cc2)NC(=O)[C@H](CC(C)C)NC(=O)[C@@H]2[C@@H](c3ccccc3)CCN2C(=O)[C@H](NC(=O)[C@@H](CCCNC(=N)N)NC(=O)[C@@H](CCCNC(=N)N)NC(C)=O)CSCSC[C@@H](C(=O)N[C@H](CCCNC(=N)N)C(=O)N[C@H](CCCNC(=N)N)C(N)=O)NC(=O)[C@H](C(C)C)NC(=O)[C@@H]2CCCN2C(=O)[C@H](CC(=O)O)NC(=O)[C@H](Cc2ccc(O)cc2)NC(=O)[C@](C)(CO)NC1=O; tested on = AsPC-1; assay = AlphaScreen, item: pERK; conditions = 2 h; endpoint = IC50; value = 4000 nM
SMILES = Cc1nc(Nc2ncc(C(=O)Nc3c(C)cccc3Cl)s2)cc(N2CCN(CCO)CC2)n1; tested on = SW1990; assay = cell viability, MTT; conditions = mutant KRAS spleen metastasis; endpoint = IC50; value = 4860 nM
SMILES = Nc1nnc(-c2ccccc2O)cc1N1CCN(Cc2ccc(OCCOCCNc3cccc4c3C(=O)N(C3CCC(=O)NC3=O)C4=O)c(F)c2)CC1 (stereo not shown); tested on = SMARCA4-mutant lung cancer cells; assay = clonogenic growth; conditions = 10 days, median over cell lines; endpoint = IC50; value = 110 nM
SMILES = Nc1ccn([C@@H]2O[C@H](CO)[C@@H](O)C2(F)F)c(=O)n1; tested on = Abrams canine osteosarcoma; assay = cell viability, resazurin; conditions = 72 h; endpoint = IC50; value = 458 nM
SMILES = Cc1nc(NC(=O)N2CCC[C@H]2C(N)=O)sc1-c1ccnc(C(C)(C)C(F)(F)F)c1; tested on = MFM-223; assay = growth rate inhibition, CellTiter-Glo; conditions = 120 h; endpoint = IC50; value = 4240 nM
SMILES = Cc1c(C(=O)O)ccc2c3n(nc12)[C@@H]1[C@H](C3)N(CC2CC2)[C@@]2(C(=O)Nc3cc(Cl)ccc32)[C@H]1c1cccc(Cl)c1F; tested on = LS180; assay = cell growth, alamarBlue; conditions = unbound, 4.5% of total; endpoint = IC50; value = 1.54 nM
SMILES = CCN(CCO)CCCC(C)Nc1ccnc2cc(Cl)ccc12 (stereo not shown); tested on = human PBMC; assay = IFN-driven gene expression, inhibitor, qRT-PCR, item: IFI44L mRNA; conditions = two donors, added: ssRNA; endpoint = IC50; value = 2200 ± 800 nM
SMILES = CC[C@]1(O)C[C@H]2CN(CCc3c([nH]c4ccccc34)[C@@](C(=O)OC)(c3cc4c(cc3OC)N(C=O)[C@H]3[C@@](O)(C(=O)OC)[C@H](OC(C)=O)[C@]5(CC)C=CCN6CC[C@]43[C@@H]65)C2)C1; tested on = KBv200 ABCB1-overexpressing; endpoint = IC50; value = 574 ± 62.5 nM
